Published values gathered from unrelated publications.
Parts stem from different laboratories: compare values within a part only. Substitutions count along the parent as printed.

Sample 1 — method: protein binding microarray; molecule type: double-stranded DNA, one strand shown; matrix: in vitro; tested at: not given; baseline: not given; direction: higher = stronger binding; quantity: E-score
Target: Histone acetyltransferase KAT6A, both winged helices, GST fusion (KAT6A, Homo sapiens, UniProt Q92794, residues 1-181)
Notes: 8-mer, flanks averaged, mean of 2 arrays, mostly near background
Construct (chain): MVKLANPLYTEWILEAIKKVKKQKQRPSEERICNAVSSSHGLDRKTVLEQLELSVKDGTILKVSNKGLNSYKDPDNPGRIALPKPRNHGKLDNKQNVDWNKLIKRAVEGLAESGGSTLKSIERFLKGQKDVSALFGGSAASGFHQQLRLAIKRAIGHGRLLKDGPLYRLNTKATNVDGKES
ATCAGGCC: -0.091
ACATTACA: -0.0457
AACGAACG: 0.0581
ACACGAGA: -0.0501
AACGCTGT: 0.132
GACTATTA: -0.0995
GCTTCAGA: -0.0926
CGCGTGAA: 0.278
GGGTTAAA: -0.00593
CTCTGTTA: -0.12
AGGTTTCC: -0.0129
AGCGCCTG: 0.108
CAGCCATG: -0.155
GAGCACTC: -0.12
CCTGTGAC: -0.181
TCTAGCCA: -0.0989
CGTACCAA: 0.0291
CTTTGCTA: -0.166

Sample 2 — method: aptamer microarray, sandwich; molecule type: DNA with 2'F-ANA; matrix: in vitro; tested at: 200 nM; added: Cy3 exosite-II aptamer, 400 nM; direction: higher = stronger binding; quantity: mean fluorescence intensity; sequence: GGTTGGTGTGGTTGG
Target: Prothrombin, mature alpha-thrombin (F2, Homo sapiens, UniProt P00734)
Notes: whole 15-mer aptamer, many near background
2'F-ANA at 2 4 6 7 8 10 11 12 15: 98.8 a.u.
2'F-ANA at 3 6 7 9 15: 921 a.u.
2'F-ANA at 5 6 11 13 15: 49.7 a.u.
2'F-ANA at 1 8 10 11 12 13 14 15: 46.3 a.u.
2'F-ANA at 1 2 3 4 5 6 12 14 15: 77 a.u.
2'F-ANA at 1 3 6 8 9 10 12 15: 98 a.u.
2'F-ANA at 1 2 4 11 12 13 14 15: 52.8 a.u.
2'F-ANA at 1 5 7 9 10 11 13 15: 48 a.u.
2'F-ANA at 2 3 11 13 14: 448 a.u.
2'F-ANA at 1 4 8 10 11 12 14 15: 46.2 a.u.
2'F-ANA at 1 6 9 10 11 13 14 15: 79.3 a.u.
2'F-ANA at 2 3 4 5 7 11 13 14: 49.5 a.u.
2'F-ANA at 1 2 6 7 9 10 12: 63 a.u.
2'F-ANA at 2 7 8 9 11 12 13 14 15: 177 a.u.
2'F-ANA at 1 5 6 7 9: 58.1 a.u.
2'F-ANA at 3 4 5 8 9 12 13 14 15: 51.1 a.u.

Sample 3 — method: RNA Bind-n-Seq; molecule type: RNA; matrix: in vitro; tested at: 365 nM; baseline: no-protein control; direction: higher = stronger binding; quantity: RBNS enrichment (R)
Target: RNA binding protein fox-1 homolog 2, RRM domain, GST-SBP tag (RBFOX2, Homo sapiens, UniProt O43251-10, residues 100-194)
Notes: natural RNA segment, single round, ends assumed
Constant ends, left off below: GGGAGUUCUACAGUCCGACGAUC … UGGAAUUCUCGGGUGCCAA
GUCUUCGUUUACGUCUCUGUCCACAUGUCAGUGUAUUAAAACCCCAAUGGGUUCCGUUUCUCCUUUUCCCCUCUGGAUUUUAAAUAAAUAUUUAAAACUGAGGCAAUGGA: 0.49
AGACACUGCCUCCCUGGAGCCCAUGCAUGCCCAGCUGUUCUUACUGCUUAGUAGCCUUGAAGCAGCACAUCUCCACUGUCCCUGGCAGGAUUGUGGGAGGCUUCACAACC: 5.07
AGGGUCGCUUCUGUCCUGUUGCAAUCAUGUCCAAGUUUGUUUUUAGUGUGGACUUUUGUGGGCACUGUCUGUCAUUGGCCACCCAGUCACGUACCGAGUGGGCAGUGUCA: 0.611
CCCAACAGCAUCACUUAGGGGUGUGAAAAGAAGUAUUUUUGAACCUGUUGUCUGGUUUUGAAAAACAAUUAUCUUGUUUUGCAAAUUGUGGAAUGAUGUAAGCAAAUGCU: 0.452
AAUUUAAGUUUCAAAUUAGUUCUCUAUAUGAGAUACUUAAUCGAGCAUAUAUAUUUAUAUUCAUUGAUCAAACUGAUAUGCUACAGGAGAAUGUAUGCAAUGUGUAAAAA: 0.923
CAUUUUAGCAACUAGUGUGGCGGCCACUUAAUUUGCCAGCCUCUCCAAGCCUGAAAAGGUCCAGGUGUCUAAGCUCUUCUCUGACUGCAACGAGUUGAAUUCUAAUCCUC: 0.373
GCCAGCCACCGUUCCAGGUCCUGUUGAGAUCAUCAUGUAACAGGACAACAAAGUCCCUGUCCUCAUGGGGCUUAUAUUCUGAUCCAUUUCCUCAUCUAUGAAAUGAAGAU: 0.439
UUUGUACUGCUUGUUUAGGAUAACACACAAAGUUCAGCCUUGAACGCAUGGUGAUCCUCCCCGCUCAGCCUCCUGAGGACUGGGAUUAAAGGUGUGUGCCUCCAUACUCU: 2.92

Sample 4 — method: protein-binding microarray; molecule type: double-stranded DNA, one strand shown; matrix: in vitro; tested at: 250 nM; notes: 60-bp whole probe; added: salmon DNA 0.4 mg/ml; baseline: random background probes; direction: higher = stronger binding; quantity: log fluorescence; constant ends, left off below: GCCTAGCAC … GTCTTGATTCGCTTGACGCTGCTG
Target: Interferon regulatory factor 7, full length, phosphomimetic (IRF7, Homo sapiens, UniProt Q92985, residues 1-503, S101K/S471D/S472D/S475D/S476D/S477D/S483D/S484D/S487D)
Construct (chain): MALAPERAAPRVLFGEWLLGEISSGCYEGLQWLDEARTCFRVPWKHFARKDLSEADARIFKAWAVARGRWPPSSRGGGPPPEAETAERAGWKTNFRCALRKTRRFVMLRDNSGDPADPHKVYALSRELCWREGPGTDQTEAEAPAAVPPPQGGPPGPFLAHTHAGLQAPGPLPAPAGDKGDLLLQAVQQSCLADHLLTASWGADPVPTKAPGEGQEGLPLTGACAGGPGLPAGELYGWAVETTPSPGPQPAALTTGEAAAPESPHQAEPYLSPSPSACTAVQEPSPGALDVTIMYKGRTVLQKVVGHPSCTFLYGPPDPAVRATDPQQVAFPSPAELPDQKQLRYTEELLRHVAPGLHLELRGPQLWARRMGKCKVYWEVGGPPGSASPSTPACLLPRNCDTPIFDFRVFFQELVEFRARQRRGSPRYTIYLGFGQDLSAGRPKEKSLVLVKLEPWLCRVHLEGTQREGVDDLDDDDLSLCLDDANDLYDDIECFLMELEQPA
TTCTCTTTCCTTCTTGATGCGTGCTAG: 1.95 z-score
TTAGGTCTCCTTATGCTTTAGTGCTAG: -0.0327 z-score
GACGGTTTGGACTTTCGGGACGTGCTA: -0.0769 z-score
GCCGGTTTCGGACTGGGGACGTGCTAG: 5.03 z-score
TTAGGTTTCGTTATCCTTTAGTGCTAG: 12.4 z-score
GACGAACGGGGGTTTCGAGACGTGCTA: 2.92 z-score
GTCGATATCAGTTTCGAGACGTGCTAG: 4.91 z-score
TCAATTATTGTCTTCCCACTGTGCTAG: 0.656 z-score
TCATGCATGTTTTTGACACTGTGCTAG: 0.058 z-score
TTAGGTTTCGGACTGGGTCAGTGCTAG: 3.65 z-score
TTAGATTTCGAGTATCGATTAGTGCTA: 1.62 z-score
CCTTCTCTAACCTCTCTAATAGTGCTA: 0.975 z-score

Sample 5 — target: CCND3, cyclin fold, Cln2 fusion (human); method: yeast growth competition, sequencing; matrix: yeast; notes: weak parent motif; baseline: not given; direction: higher = stronger binding; quantity: normalised enrichment score
Starting sequence: WEE1 docking peptide (human); HKTFRKLRLFDTP
P13R: 0.0493
T3P: 0.128
D11C: 0.14
H1V: -0.0609
T3E: 0.0321
K6R: 0.124
L9M: 0.102
L7I: 0.212
T12E: 0.156
T12R: 0.0728
T3I: 0.153
F10Y: 0.0515
P13Y: 0.136
L9F: 0.0813

Repeated from above (sample 1):
CAGCCATG: -0.155
AGCGCCTG: 0.108
TCTAGCCA: -0.0989
GCTTCAGA: -0.0926
CGTACCAA: 0.0291
CTCTGTTA: -0.12
CCTGTGAC: -0.181
